Measurements of several laboratories.
Each line is one published result; not all experiments were run side by side. Several values in a cell are separate wells, animals, samples, runs or records.
Target: Fibroblast growth factor receptor 1 (FGFR1, Homo sapiens, UniProt P11362)
Chain of UniProt P11362 (whole entry, looked up): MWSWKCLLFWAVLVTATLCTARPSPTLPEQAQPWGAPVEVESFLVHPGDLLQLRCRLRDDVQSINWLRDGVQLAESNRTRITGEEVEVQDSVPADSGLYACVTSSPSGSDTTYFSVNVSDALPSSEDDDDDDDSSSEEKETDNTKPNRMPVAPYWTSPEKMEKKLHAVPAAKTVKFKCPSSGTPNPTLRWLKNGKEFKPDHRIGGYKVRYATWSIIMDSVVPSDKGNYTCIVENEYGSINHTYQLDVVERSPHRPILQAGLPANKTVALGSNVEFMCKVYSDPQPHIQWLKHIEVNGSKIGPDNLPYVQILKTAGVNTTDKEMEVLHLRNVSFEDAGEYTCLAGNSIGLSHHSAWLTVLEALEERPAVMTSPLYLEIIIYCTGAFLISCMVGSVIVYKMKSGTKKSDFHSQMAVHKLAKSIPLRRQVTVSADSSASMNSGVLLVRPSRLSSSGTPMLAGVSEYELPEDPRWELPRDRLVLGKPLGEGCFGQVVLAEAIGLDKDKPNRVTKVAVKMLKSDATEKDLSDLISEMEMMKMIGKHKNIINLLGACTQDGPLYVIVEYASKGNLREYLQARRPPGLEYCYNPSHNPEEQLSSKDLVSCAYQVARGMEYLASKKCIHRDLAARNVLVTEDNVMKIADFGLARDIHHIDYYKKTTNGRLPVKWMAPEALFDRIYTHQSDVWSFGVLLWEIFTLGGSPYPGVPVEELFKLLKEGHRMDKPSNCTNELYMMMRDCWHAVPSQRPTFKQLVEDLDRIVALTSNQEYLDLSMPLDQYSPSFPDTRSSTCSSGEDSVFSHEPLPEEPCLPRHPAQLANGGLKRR

COc1cc2nccc(Oc3ccc(NC(=S)N4CCCC4)c(Cl)c3)c2cc1C(N)=O  IC50: 227 nM
COc1ccc(-c2cn(C)c3ncnc(N)c23)cc1  IC50 (Caliper mobility shift; 30 min preincubation, with: 100 µM ATP): 3300 nM
CCOCCCOc1cc2nccc(Oc3ccc(NC(=S)NC4CC4)c(Cl)c3)c2cc1C(N)=O  IC50: 216 nM
C#Cc1cccc(Nc2ncnc3cc(OC)c(OCCCN4CCOCC4)cc23)c1  IC50 (kinase activity, inhibitor; with: ATP 80.8 µM): > 10000 nM
Cc1c(-c2c3c(N)n[nH]c(=O)c3nn2-c2ccccc2)oc2cc(F)ccc12  IC50 (enzyme activity, inhibitor, ELISA): 60.3 nM
O=C1Nc2ccc(-c3ccc(-c4ccc(O)cc4)cc3)cc2/C1=C/c1ccc(N2CCNCC2)cc1  IC50 (enzyme activity, inhibitor, FRET): 72.2 nM
CCN(CC)CCOc1cc2nccc(Oc3ccc(NC(=S)NC4CC4)c(Cl)c3)c2cc1C(N)=O  IC50: 9030 nM
CN1CCN(C(=O)c2ccc(-c3ccc4c(c3)/C(=C/c3ccc(N5CCNCC5)cc3)C(=O)N4)cc2)CC1  IC50 (enzyme activity, inhibitor, FRET): < 16 nM and 10 nM
Cc1ccc2oc(-c3c4c(N)n[nH]c(=O)c4nn3-c3c(F)cccc3F)c(C)c2c1  IC50 (enzyme activity, inhibitor, ELISA): 31.3 nM
COc1cc(OC)cc(C(O)c2c[nH]c3ncc(C(F)(F)F)cc23)c1 (stereo not drawn)  IC50 (enzyme activity, inhibitor): 54 nM
COc1cc2nccc(Oc3ccc(NC(=S)Nc4cc[nH]n4)c(Cl)c3)c2cc1C(N)=O  IC50: 1830 nM
C=CC(=O)Nc1ccc(-c2c(-c3ccc(Oc4ccccc4)cc3)c3c(N)ncnc3n2C)cc1  IC50 (Caliper mobility shift; 30 min preincubation, with: 100 µM ATP): 84 nM
COc1ccc(C(=O)/C=C/c2ccccc2-c2c[nH]c3ccc(C#N)cc23)c(O)c1  IC50 (enzyme activity, inhibitor, ADP detection): 1100 nM
C=C(C)C(=O)Nc1ccc(-c2c(-c3ccc(Oc4cccc(C)n4)cc3)c3c(N)ncnc3n2C)cc1  IC50 (Caliper mobility shift; 30 min preincubation, with: 100 µM ATP): 470 nM
O=C1Nc2ccc(-c3ccc4cc(O)ccc4c3)cc2/C1=C/c1ccc(N2CCNCC2)cc1  IC50 (enzyme activity, inhibitor, FRET): 1110 nM
COc1cc2nccc(Oc3ccc(NC(=S)Nc4cccc(C(F)(F)F)c4)c(Cl)c3)c2cc1C(N)=O  IC50: 3540 nM
C=CC(=O)Nc1ccc(-c2c(-c3ccc(OC)cc3)c3c(N)ncnc3n2C)cc1  IC50 (Caliper mobility shift; 30 min preincubation, with: 100 µM ATP): 63 nM
O=C1Nc2ccc(-c3ccc(C(=O)N4CCCC4)cc3)cc2/C1=C/c1ccc(N2CCNCC2)cc1  IC50 (enzyme activity, inhibitor, FRET): 92.4 nM
COc1cccc(Cc2c[nH]c3ncc(C(F)(F)F)cc23)c1  IC50 (enzyme activity, inhibitor): 83 nM
COc1cc2nccc(Oc3ccc4c(c3)CCCN4C(=S)NC3CC3)c2cc1C(N)=O  IC50: 3700 nM
Cc1ccc2oc(-c3c4c(N)n[nH]c(=O)c4nn3-c3cccc(F)c3)c(C)c2c1  IC50 (enzyme activity, inhibitor, ELISA): 53.1 nM
C=C(C)C(=O)Nc1ccc(-c2c(-c3ccc(Oc4nccc(C)n4)cc3)c3c(N)ncnc3n2C)cc1  IC50 (Caliper mobility shift; 30 min preincubation, with: 100 µM ATP): 1290 nM
Cc1ccc2oc(-c3c4c(N)n[nH]c(=O)c4nn3-c3c(Cl)cccc3Cl)c(C)c2c1  IC50 (enzyme activity, inhibitor, ELISA): 118 nM
COc1cc2nccc(Oc3ccc(NC(=S)NC4CC4)nc3)c2cc1C(N)=O  IC50: > 10000 nM

Some of these lines once more:
C#Cc1cccc(Nc2ncnc3cc(OC)c(OCCCN4CCOCC4)cc23)c1  IC50 (kinase activity, inhibitor; with: ATP 80.8 µM): > 10000 nM
